Experimental data collected from several papers.
Numbered parts are unrelated; each lists some results of a single study. Changes are numbered by the printed parent chain.

Study 1 — target: CCNA1, cyclin fold, Cln2 fusion (human); method: yeast growth competition, sequencing; medium: yeast; setting: strong parent motif; relative to: not given; direction: higher = stronger binding
Starting sequence: viral docking peptide; YKVKRRLVFGADD; partner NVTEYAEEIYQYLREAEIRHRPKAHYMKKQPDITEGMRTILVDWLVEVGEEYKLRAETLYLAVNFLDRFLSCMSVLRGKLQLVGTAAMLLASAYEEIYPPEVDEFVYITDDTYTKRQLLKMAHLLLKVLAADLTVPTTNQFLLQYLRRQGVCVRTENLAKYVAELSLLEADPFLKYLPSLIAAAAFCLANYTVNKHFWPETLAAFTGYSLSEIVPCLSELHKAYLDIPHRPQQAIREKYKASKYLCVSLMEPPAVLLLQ
Change | normalised enrichment score
YKVKRILVFGADD [R6I] | 0.29
YKVKRRLYFGADD [V8Y] | 1.3
YKVKRRLVFEADD [G10E] | 1.44
YAVKRRLVFGADD [K2A] | 0.803
YKVKARAVFGADD [R5A L7A] | 0.292
YKVKRRLPFGADD [V8P] | 0.423
YKVKARLVFGADD [R5A] | 0.336
YKVKRRLRFGADD [V8R] | 0.638
YKVQRRLVFGADD [K4Q] | 1.1
YKVKRRLVFGQDD [A11Q] | 0.86
YKVKRRLVFGDDD [A11D] | 1.49
YKNKRRLVFGADD [V3N] | 0.0659
YKVKRRLVFGAYD [D12Y] | 0.932
YKVYRRLVFGADD [K4Y] | 0.671
YKVKRRLHFGADD [V8H] | 1.27
YKVKRRLVFFADD [G10F] | 0.611

Study 2 — target: UBE2D3 UBC core domain (UniProt P61077); method: yeast two-hybrid; medium: yeast; setting: mostly zero background; relative to: not given; direction: higher = stronger interaction
B1: TRIM47 RING domain (UniProt Q96LD4); chain MDGSGPFSCPICLEPLREPVTLPCGHNFCLACLGALWPHRGASGAGGPGGAARCPLCQEPFPDGLQLR
B2: TRIM34 RING domain (UniProt Q9BYJ4); chain ILLNVQEEVTCPICLELLTEPLSLDCGHSLCRACITVSNKEAVTSMGGKSSCPVCGISYSFEHLQA
B3: SHPRH RING domain (UniProt Q149N8); chain KTSGGVNPEPCPICARQLGKQWAVLTCGHCFCNECISIIIEQYSVGSHRSSIKCAICRQTTSHKEISY
B4: RNF17 RING domain (UniProt Q9BXT8); chain SQPWGAAEIQCTRCGRRVSRSSGHHCELQCGHAFCELCLLMTEECTTIICPDCEVATAVNTRQR
Target sequence (chain): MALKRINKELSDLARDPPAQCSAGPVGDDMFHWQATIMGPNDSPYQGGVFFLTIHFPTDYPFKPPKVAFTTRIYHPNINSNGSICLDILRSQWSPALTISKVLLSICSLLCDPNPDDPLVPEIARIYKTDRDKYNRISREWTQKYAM
Sequence | lacZ reporter activity
B1 (TRIM47 RING domain) | 0
B2 (TRIM34 RING domain) | 0
AAQLLEEKLTCAICLGLYQDPVTLPCGHNFCGACIRDWWDRCGKACPECREPFPDGAELR (TRIM65 RING domain (UniProt Q6PJ69)) | 0
B3 (SHPRH RING domain) | 0
B4 (RNF17 RING domain) | 0
EIKDYKARLTCPCCNMRKKDAVLTKCFHVFCFECVKTRYDTRQRKCPKCNAAFGANDFHR (RNF20 RING domain (UniProt Q5VTR2)) | 0
VPADASPDSKCPICLDRFDNVSYLDRCLHKFCFRCVQEWSKNKAECPLCKQPFDSIFHSV (TOPORS RING domain (UniProt Q9NS56)) | 16700
KITELNPHLMCALCGGYFIDATTIVECLHSFCKTCIVRYLETNKYCPMCDVQVHKTRPLL (PCGF2 RING domain (UniProt P35227)) | 0

Study 3 — method: protein-binding microarray; molecule type: double-stranded DNA, one strand shown; medium: in vitro; concentration: 250 nM; setting: 60-bp whole probe; together with: salmon DNA 0.4 mg/ml; relative to: random background probes; direction: higher = stronger binding; shared flanks, not repeated: GCCTAGCAC … GTCTTGATTCGCTTGACGCTGCTG
Target: Interferon regulatory factor 7, full length, phosphomimetic (IRF7, Homo sapiens, UniProt Q92985, residues 1-503, S101K/S471D/S472D/S475D/S476D/S477D/S483D/S484D/S487D)
Construct (chain): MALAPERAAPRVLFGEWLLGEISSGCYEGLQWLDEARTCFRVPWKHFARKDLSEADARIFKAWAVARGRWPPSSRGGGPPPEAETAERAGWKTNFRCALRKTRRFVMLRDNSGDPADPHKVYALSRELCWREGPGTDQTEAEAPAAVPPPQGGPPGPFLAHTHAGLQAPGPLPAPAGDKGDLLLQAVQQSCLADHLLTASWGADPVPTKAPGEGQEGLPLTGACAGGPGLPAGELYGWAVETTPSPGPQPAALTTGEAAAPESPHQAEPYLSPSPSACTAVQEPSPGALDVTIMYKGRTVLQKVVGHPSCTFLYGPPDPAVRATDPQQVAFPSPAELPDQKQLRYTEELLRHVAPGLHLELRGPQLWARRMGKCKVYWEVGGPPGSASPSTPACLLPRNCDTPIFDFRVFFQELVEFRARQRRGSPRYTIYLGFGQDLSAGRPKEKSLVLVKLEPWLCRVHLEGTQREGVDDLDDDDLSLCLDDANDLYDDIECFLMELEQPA
Sequence | log fluorescence
TCACCCCTCTCTTTCCAACTGTGCTAG | 0.382 z-score
GACGGCCTGGACTATCGGGACGTGCTA | -0.917 z-score
TTCGGACTGGGGTTTCGGTTAGTGCTA | 4.99 z-score
AGGAATCTTGAGTTAGAGACGTGCTAG | -0.246 z-score
TCATTTTTTTAATTGAGACTGTGCTAG | 0.473 z-score
TCAAGTCTGGGAGATGAAACTGTGCTA | -0.601 z-score
TTAGGTTTCATACTGCTTTAGTGCTAG | 1.55 z-score
TCAGTTTGCCCTATTTAACTGTGCTAG | 1.89 z-score

Study 4 — method: RNA Bind-n-Seq; molecule type: RNA; medium: in vitro; concentration: not given; setting: 4-mer, random 30-nt RNA, single round; together with: RocA, ADP, phosphate; relative to: input library; direction: higher = stronger binding
Target: ATP-dependent RNA helicase DDX3X, helicase core (DDX3X, Homo sapiens, UniProt O00571, residues 132-607)
Sequence of UniProt O00571 (132-607, looked up): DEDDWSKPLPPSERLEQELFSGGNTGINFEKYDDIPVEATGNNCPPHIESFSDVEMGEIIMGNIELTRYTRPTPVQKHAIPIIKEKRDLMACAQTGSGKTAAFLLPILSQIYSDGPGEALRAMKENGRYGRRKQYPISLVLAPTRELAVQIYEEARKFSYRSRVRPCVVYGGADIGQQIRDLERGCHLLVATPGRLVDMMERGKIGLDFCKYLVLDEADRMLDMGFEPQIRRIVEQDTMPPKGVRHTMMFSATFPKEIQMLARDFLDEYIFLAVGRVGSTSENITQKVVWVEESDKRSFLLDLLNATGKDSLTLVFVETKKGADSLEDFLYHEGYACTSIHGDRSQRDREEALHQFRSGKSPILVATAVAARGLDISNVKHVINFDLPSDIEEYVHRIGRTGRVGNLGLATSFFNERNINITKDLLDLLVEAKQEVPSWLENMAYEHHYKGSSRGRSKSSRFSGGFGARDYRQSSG
Sequence | 4-mer enrichment [fold]
UCAU | 0.72
GCCG | 0.787
ACAC | 0.716
GAAU | 1.33
GAGG | 1.94
GUGG | 1.4
ACCU | 0.663
CUGU | 0.798

A few entries again (study 3):
Sequence | log fluorescence
TTCGGACTGGGGTTTCGGTTAGTGCTA | 4.99 z-score
TCATTTTTTTAATTGAGACTGTGCTAG | 0.473 z-score
TCAAGTCTGGGAGATGAAACTGTGCTA | -0.601 z-score
